Results of several laboratories.
Compare with care: the assays were run in different laboratories.
Dose: dose not given

SMILES = CCN1CCN(Cc2ccc(Nc3ncc(F)c(-c4cc(F)c5nc6n(c5c4)[C@H](C)CCC6)n3)nc2)CC1; assay = Phase Ia, RECIST v1.1; test system = patients with advanced solid tumours; conditions = monotherapy, all doses; endpoint = median progression-free survival; value = 6.5 months
SMILES = CN(C)C(=O)c1cc2cnc(Nc3ccc(N4CCNCC4)cn3)nc2n1C1CCCC1; test system = HR+/HER2− advanced breast cancer patients; conditions = region North America; endpoint = median PFS2; value = 33.5 months
SMILES = Cc1cc(C)c(CNC(=O)c2cc(Cl)c3c(c2C)O[C@@](C)([C@H]2CC[C@H](N(C)C)CC2)O3)c(=O)[nH]1; test system = relapsed/refractory B-NHL patients; conditions = IWG 2007 criteria; endpoint = median duration of response; value = > 18 months
SMILES = COc1ncnn2ccc(-c3cnc4nc(C)n(Cc5nnc([C@@H](C)F)o5)c4c3)c12; test system = Homo sapiens, relapsed or refractory AML or MDS; conditions = responding patients; endpoint = median remission time; value = 56 days
SMILES = CC(C)n1c(C2CCNCC2)nc2c([N+](=O)[O-])c(Br)c(Br)cc21; assay = refers to: blasts; test system = AML patients IDH mutated, bone marrow; conditions = all doses; endpoint = median change from baseline; value = -43%
SMILES = Cc1cc(Nc2ncc(Cl)c(Nc3ccccc3S(=O)(=O)C(C)C)n2)c(OC(C)C)cc1C1CCNCC1; test system = patients with advanced solid tumours; conditions = together with: gemcitabine and cisplatin; endpoint = median progression-free survival; value = 5.6 months
SMILES = Nc1nc2cc(-c3ccc4ncc(C(=O)N5CCOCC5)n4c3)ccc2o1; assay = RECIST v1.1; test system = advanced solid tumour patients; conditions = once-daily dosing; endpoint = median clinical benefit duration; value = 4.8 months
SMILES = Cc1cccc(-c2[nH]c(CNc3ccccc3F)nc2-c2ccc3ncnn3c2)n1; test system = relapsed refractory multiple myeloma patients; conditions = oral, together with: pomalidomide; endpoint = median time to best response; value = 2 months
SMILES = N#CC[C@H](C1CCCC1)n1cc(-c2ncnc3[nH]ccc23)cn1; assay = phosphoflow cytometry, refers to: pS6; test system = patients, patient plasma; how to read = reference: baseline; endpoint = median peak inhibition; value = 62.3%
SMILES = COCCOc1cnc2ccn([C@H](C)c3nnc4c(F)cc(-c5cnn(C)c5)cn34)c(=O)c2c1; test system = MET-amplified advanced solid tumours; endpoint = median duration of response; value = 197 days
SMILES = CN[C@@H](C)C(=O)N[C@H]1CN(S(=O)(=O)c2cccc(S(=O)(=O)N3CC[C@H]4CC[C@@H](C(=O)NC(c5ccccc5)c5ccccc5)N4C(=O)[C@@H](NC(=O)[C@H](C)NC)C3)c2)CC[C@H]2CC[C@@H](C(=O)NC(c3ccccc3)c3ccccc3)N2C1=O; assay = RECIST 1.1; test system = advanced pancreatic cancer patients; conditions = prior therapy, together with: AG; endpoint = median progression-free survival; value = 2.76 months

For quick reference, copied from above:
SMILES = Cc1cc(Nc2ncc(Cl)c(Nc3ccccc3S(=O)(=O)C(C)C)n2)c(OC(C)C)cc1C1CCNCC1; test system = patients with advanced solid tumours; conditions = together with: gemcitabine and cisplatin; endpoint = median progression-free survival; value = 5.6 months
